Results gathered from unrelated publications.
Lines come from different studies, so protocols differ. ± gives the spread as reported.

SMILES | cell line | assay | conditions | IC50
C=C1C(=O)[C@@]23CC[C@@H]4C(C)(C)CCC[C@@]4(COC(C)=O)[C@@H]2[C@@H](O)C[C@@H]1C3 (single isomer, unassigned) | 786-0 | cell growth or viability, MTT | – | 8.8 µM
CC(=O)c1cnc(N)nc1N1CC[C@H]1c1nn2ccc(Cl)c2c(=O)n1-c1ccccc1 | human CD4 T cells | Th1 differentiation, refers to: IFN-gamma | – | 0.048 µM
CC1CC(=O)N(CCCCCCN)N=C1c1ccc(NC(=O)N2Cc3ccncc3C2)cc1 (stereo not drawn) | A549-C4.4a | cell viability, CellTiter-Glo | – | 0.066 µM
COc1ccc(/C=C/C2=[N+]3C(=C(CO)c4c(C)cc(/C=C/c5ccc(OC)cc5)n4[B-]3(C)C)C(C)=C2)cc1 | RPE-1 | cell growth or viability, resazurin | dark | > 100 µM
CC1=C2[O][Ru-]([Cl])[O+]=C2C=CN1CCCN1C=CC2=[O+][Ru-]([Cl])[O]C2=C1C.Cc1ccc(C(C)C)cc1.Cc1ccc(C(C)C)cc1 | DAN-G | cell growth or viability, crystal violet | 96 h | > 20 µM
Cc1cc(/C=C/C#N)cc(C)c1Oc1cc(Nc2ccc(C#N)cn2)nc2cnccc12 | MOLT-3 | – | 48 h | 84.7 ± 30.5 µM
CC(C)c1cccc(C(C)C)c1-n1c2c([n+](-c3c(C(C)C)cccc3C(C)C)[c]1[Au-][Cl])-c1cccc3cccc-2c13 | C13 cisplatin-resistant | cell viability, MTT | 72 h | 18 ± 2 µM
COc1cc(N2CCN(C(=O)CN)CC2)ccc1Nc1ncc(Cl)c(Nc2ccccc2P(C)(C)=O)n1 | NCI-H3122 | cell growth or viability, CCK-8 | 48 h | 0.069 µM
O=C(Nc1cc(C(F)F)ns1)Nc1cc(F)ncc1CO | SW13 (BRG1/BRM-deficient) | cell viability | – | > 10 µM
C[C@@H]1O[C@@H](NNC(=O)Nc2ccc(S(N)(=O)=O)cc2)[C@H](O)[C@H](O)[C@H]1O | HCEC | cell growth or viability, MTT | 96 h | > 100 µM
O=C(/C=C/c1ccc2c(c1)C(=O)N(CCCc1ccccc1)CC2)NO | MKN-28 | cell growth, SRB | 72 h | 1.4 ± 0.55 µM
CCCCOc1nc(N)c2[nH]c(=O)n(CCCN(CCCN3CCOCC3)Cc3cccc(CC(=O)OC)c3)c2n1 | human PBMC | IL-5 release | 7 d, together with: Der p 1 | 0.0002 µM
CCCCCCCCCCCCCCCCCC(=O)N[C@@H](CCCCN)C(=O)N[C@@H](CCCCN)C(=O)N[C@@H](CCCCN)C(=O)N[C@@H](CCCCN)C(=O)N[C@@H](CCCCN)C(N)=O | HCEC | cytotoxicity | – | 28.3 µg/mL
[Cl][Pt-]1([Cl])[S]C(Nc2ccccc2)=N[N+]1=Cc1cccs1 | CEM human lymphocytes | cell proliferation | – | 55 µM
CN1CCCNC(=O)CCC(=O)NCCCN(C)CCCNc2cccc3c2C(=O)c2cccc(c2C3=O)NCCC1 | SAS | cell growth or viability, CCK-8 | 48 h | > 20 µM
O=[N+]([O-])c1ccc(NC2=N[N+](=Cc3cccs3)[Pd-]([Cl])([Cl])[S]2)cc1 | CRFK | cell growth or viability | – | > 100 µM
C=C1C(=O)O[C@H]2CC3=C[C@@H](C/C(C)=C/[C@@H](OC(=O)/C=C/c4ccccc4)[C@H]12)OC3=O | A2058 | cell growth or viability, MTT | 24 h | 3.9 µM
CC(C)c1cccc(C(C)C)c1-n1c2c([n+](-c3c(C(C)C)cccc3C(C)C)[c]1[Cu-][Cl])-c1cccc3cccc-2c13 | C13 cisplatin-resistant | cell viability, MTT | 72 h | 7.7 ± 0.7 µM
C=CC(OC(C)=O)c1cc(OC)cc(OC)c1 (stereo not drawn) | EJ-28 | MTT | 24 h | > 50 µM
CNC(=O)C1CCN(c2cc(C)c(F)cc2NC(=O)c2ccc(-c3cc(O)ccc3C)c(C)c2)CC1 | 12Z | cell growth or viability, ATP luminescence | 72 h | 2.83 µM
Cc1cc(C#N)cc(C)c1Oc1cc(Nc2ccc(C#N)cn2)nc2cnccc12 | MOLT-3 | – | 48 h | > 127 µM
Cc1c(C)n(-c2c(C(C)C)cccc2C(C)C)c(=[Se])n1-c1c(C(C)C)cccc1C(C)C.[Cl][Ag] | LoVo MDR | MTT | 72 h | 1.3 ± 0.2 µM
CC(C)=CCC1=C([O-])C(=O)c2ccccc2C1=O.CC(C)=CCC1=C([O-])C(=O)c2ccccc2C1=O.[Cu+2].c1ccc(-c2ccnc3c2ccc2c(-c4ccccc4)ccnc23)cc1 | MRC5 normal fibroblasts | cell viability, MTT | 24 h | 3.2 ± 0.1 µM
CC(C)Cc1ccc(C(C)C(=O)[O][Pt]([NH2])([NH2])([Cl])([Cl])[O]C(=O)C(Cl)Cl)cc1 (stereo not drawn) | C13 cisplatin-resistant | cytotoxicity, MTT | 72 h | 0.97 ± 0.22 µM
COC(=O)[C@@]1(C)C=C(C(=O)NCc2cccc(C(=O)Nc3ccc(Nc4nccc(-c5cccnc5)n4)c(C)c3)c2)C(=O)CC1 | SH-SY5Y MKK7-ACT | c-Jun phosphorylation, inhibitor, HTRF, refers to: phospho-c-Jun Ser63 | 6 h, together with: doxycycline | 0.747 ± 0.247 µM
CCn1cc[n+](CC)c1 | RC-124 kidney epithelial | cell proliferation, crystal violet staining | 96 h | > 100 µM

SMILES | cell line | assay | conditions | IC50
[Cl][Pt-]1([Cl])[S]C(Nc2ccccc2)=N[N+]1=Cc1ccc(-c2ccccc2)s1 | CEM human lymphocytes | cell proliferation | – | 53 µM
C=CC(=O)N1CCC(c2c(-c3ccc(OC)cc3)c3c(N)ncnc3n2C)C1 (stereo not drawn) | SNU-16 | cell growth or viability, ATP luminescence | 96 h | 0.15 µM
C=CCc1ccc(OC(C)=O)c(OC)c1 | EJ-28 | MTT | 24 h | > 50 µM
CCCCCCCCCCCCCCCCC1CC(=O)NCCCN(C)CCCCN(C)CCCN1C (stereo not drawn) | LLC-PK11 | cell growth or viability, neutral red | 48 h | 1.7 µg/mL
O=C(CCc1ccc(CNC(C(=O)OC2CCCC2)C2CCCCC2)cn1)NO (stereo not drawn) | human CD14+ monocytes | M-CSF differentiation | 4 h then washout, together with: M-CSF | 0.118 µM
CC1(C)Cc2c(-c3ccccc3)c(-c3ccc(Cl)cc3)c(CC(=O)NCC(=O)O)n2C1 | mouse peritoneal macrophages | LTB4 production | together with: LPS | 1.24 µM
CC1=CC(C)=[N+]2C1=C(CO)c1c(C)cc(C)n1[B-]2(F)F | RPE-1 | cell viability, resazurin | 0.1667 h, 510 nm irradiation 2.44 J/cm2 | 5 ± 1 µM
[Fe+2].c1ccc(N=P(c2ccccc2)(c2ccccc2)[c-]2cccc2)cc1.c1ccc(N=P(c2ccccc2)(c2ccccc2)[c-]2cccc2)cc1 | A2780cisR (cisplatin-resistant) | cell growth, MTT | 74 h, 1% DMSO | 32.7 ± 6 µM
OC(CN1CCNCC1)Cn1c2ccc(Br)cc2c2cc(Br)ccc21 (stereo not drawn) | wild-type MEF | caspase-3/7 activation, inhibitor | 8 h, together with: TNFα + cycloheximide | 1.8 µM
CC(=O)N[C@H]1C(n2cc([C@@](C)(O)c3cccc(F)c3)nn2)O[C@H](COCc2ccccc2)[C@H](OCc2ccccc2)[C@@H]1OCc1ccccc1 (stereo partly drawn) | JEG-3 | cell growth or viability, MTS | 72 h | 38.1 µM
COc1ccc([C@@H]2CC(=O)c3c(O)cc(O[C@@H]4O[C@H](CO[C@@H]5O[C@@H](C)[C@H](O)[C@@H](O)[C@H]5O)[C@@H](O)[C@H](O)[C@H]4O)cc3O2)cc1O | A549 | cell growth or viability, MTS | 72 h | 58.7 µg/mL
O=C(NCC1(c2nc(-c3ccccc3)cs2)CCOCC1)c1cccc(-c2noc(C(F)(F)F)n2)c1 | DHL6 | cell proliferation, CCK-8 | 120 h | > 10 µM
COc1ccc(/C=C/C2=[N+]3C(=C(C=O)c4c(C)c(Br)c(/C=C/c5ccc(OC)cc5)n4[B-]3(F)F)C(C)=C2Br)cc1 | RPE-1 | cell growth or viability, resazurin | dark | > 100 µM
Cc1c(C)c(C)[c-](C)c1C.Fc1c[c-]c(-c2ccccn2)cc1.[Cl-].[Ir+3] | A2780 cells | cell growth, SRB | 24 h exposure, 72 h recovery | 2.7 ± 0.3 µM
CCOC(=O)c1nn(-c2ccccc2)c2nc3nc(-c4ccccc4)cc(-c4ccc5ccccc5n4)c3c(=O)n12 | RPE-1 | cell growth or viability, MTT | 48 h | 25.5 µM
Cc1nn(C)c(O)c1-c1nc2cc(Cl)c(Cl)cc2[nH]c1=O | TF-1 | cell growth or viability, resazurin | 72 h | 15.5 µM
COc1ccc2c(c1)c(C)c1c(-c3ccccc3)c(S(=O)(=O)c3ccc(C)cc3)c3ccccc3n12 | LS174T | cell growth or viability, MTT | 72 h | > 100 µM
C=CCc1ccc(O)c(-c2cc(CC=C)ccc2OCCCCCCCCCC[P+](c2ccccc2)(c2ccccc2)c2ccccc2)c1 | UACC-62 | cell growth, IncuCyte confluence | – | 0.3 µM
O=C1C(Br)=C(Br)C(=O)c2ccccc21 | MOLT-3 | cell growth or viability, XTT | 48 h | 3.29 µM
O=C(CCl)Sc1nnc(-c2n[nH]c(=O)c3ccccc23)o1 | HepG2 and MCF7 | cell growth, MTT | – | 5.5 to 15 µM
S=c1n(-c2ccccc2)c2c3ccccc3nc3[n+]2[n]1[Ir-3]12([S]3)([c]3ccccc3-c3cccc[n+]31)[c]1ccccc1-c1cccc[n+]12 | MRC9 | cell viability, MTT | dark | > 50 µM
[Cl][Au].[Se]=c1n(C23CC4CC(CC(C4)C2)C3)ccn1C12CC3CC(CC(C3)C1)C2 | LoVo MDR | MTT | 72 h | 4.4 ± 0.9 µM
Cc1ccc(NC(=O)c2c(C)oc3ccc(O)c(CN4CCCCCC4)c23)cc1 | KMS-27 | cell growth or viability, MTS | 72 h | 9.6 µM
Cc1c(C)c(C)[c-](C)c1C.Cc1ccnc(-c2[c-]cccc2)c1.[Cl-].[Ir+3] | A2780 cells | cell growth, SRB | 24 h exposure, 72 h recovery | 3.9 ± 0.2 µM
C[C@@H]1[C@H](O)[C@@H](C)/C=C/C=C/C=C/C=C/C=C/C=C/C=C/[C@H](O[C@@H]2O[C@H](C)[C@@H](O)[C@H](N)[C@@H]2O)C[C@@H]2O[C@](O)(C[C@@H](O)C[C@@H](O)[C@H](O)CC[C@@H](O)C[C@@H](O)CC(=O)O[C@H]1C)C[C@H](O)[C@H]2C(=O)O | HK-2 | cell growth, SRB | 24 h | 3.7 µM

Repeated from above:
SMILES | cell line | assay | conditions | IC50
[Fe+2].c1ccc(N=P(c2ccccc2)(c2ccccc2)[c-]2cccc2)cc1.c1ccc(N=P(c2ccccc2)(c2ccccc2)[c-]2cccc2)cc1 | A2780cisR (cisplatin-resistant) | cell growth, MTT | 74 h, 1% DMSO | 32.7 ± 6 µM
OC(CN1CCNCC1)Cn1c2ccc(Br)cc2c2cc(Br)ccc21 (stereo not drawn) | wild-type MEF | caspase-3/7 activation, inhibitor | 8 h, together with: TNFα + cycloheximide | 1.8 µM
CC(=O)N[C@H]1C(n2cc([C@@](C)(O)c3cccc(F)c3)nn2)O[C@H](COCc2ccccc2)[C@H](OCc2ccccc2)[C@@H]1OCc1ccccc1 (stereo partly drawn) | JEG-3 | cell growth or viability, MTS | 72 h | 38.1 µM
